Experimental data pooled from the literature.
“And” joins repeats or separate records; there may be more than shown. ± marks the error that the study gave.
UniProt P10632, sequence (whole entry, looked up): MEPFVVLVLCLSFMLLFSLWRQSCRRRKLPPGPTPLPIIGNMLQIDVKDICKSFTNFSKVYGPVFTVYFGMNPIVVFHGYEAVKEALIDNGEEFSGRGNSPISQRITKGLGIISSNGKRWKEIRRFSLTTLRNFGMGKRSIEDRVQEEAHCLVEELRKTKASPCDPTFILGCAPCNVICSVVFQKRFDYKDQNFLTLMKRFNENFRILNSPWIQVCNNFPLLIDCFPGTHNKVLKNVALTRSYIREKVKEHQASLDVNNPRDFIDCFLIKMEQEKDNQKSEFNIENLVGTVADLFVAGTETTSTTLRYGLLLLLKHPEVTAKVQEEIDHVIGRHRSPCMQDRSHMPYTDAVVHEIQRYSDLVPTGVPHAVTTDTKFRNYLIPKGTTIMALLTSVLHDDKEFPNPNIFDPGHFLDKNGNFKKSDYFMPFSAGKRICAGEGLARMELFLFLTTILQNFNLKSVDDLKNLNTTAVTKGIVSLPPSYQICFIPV
UniProt P29597, sequence (whole entry, looked up): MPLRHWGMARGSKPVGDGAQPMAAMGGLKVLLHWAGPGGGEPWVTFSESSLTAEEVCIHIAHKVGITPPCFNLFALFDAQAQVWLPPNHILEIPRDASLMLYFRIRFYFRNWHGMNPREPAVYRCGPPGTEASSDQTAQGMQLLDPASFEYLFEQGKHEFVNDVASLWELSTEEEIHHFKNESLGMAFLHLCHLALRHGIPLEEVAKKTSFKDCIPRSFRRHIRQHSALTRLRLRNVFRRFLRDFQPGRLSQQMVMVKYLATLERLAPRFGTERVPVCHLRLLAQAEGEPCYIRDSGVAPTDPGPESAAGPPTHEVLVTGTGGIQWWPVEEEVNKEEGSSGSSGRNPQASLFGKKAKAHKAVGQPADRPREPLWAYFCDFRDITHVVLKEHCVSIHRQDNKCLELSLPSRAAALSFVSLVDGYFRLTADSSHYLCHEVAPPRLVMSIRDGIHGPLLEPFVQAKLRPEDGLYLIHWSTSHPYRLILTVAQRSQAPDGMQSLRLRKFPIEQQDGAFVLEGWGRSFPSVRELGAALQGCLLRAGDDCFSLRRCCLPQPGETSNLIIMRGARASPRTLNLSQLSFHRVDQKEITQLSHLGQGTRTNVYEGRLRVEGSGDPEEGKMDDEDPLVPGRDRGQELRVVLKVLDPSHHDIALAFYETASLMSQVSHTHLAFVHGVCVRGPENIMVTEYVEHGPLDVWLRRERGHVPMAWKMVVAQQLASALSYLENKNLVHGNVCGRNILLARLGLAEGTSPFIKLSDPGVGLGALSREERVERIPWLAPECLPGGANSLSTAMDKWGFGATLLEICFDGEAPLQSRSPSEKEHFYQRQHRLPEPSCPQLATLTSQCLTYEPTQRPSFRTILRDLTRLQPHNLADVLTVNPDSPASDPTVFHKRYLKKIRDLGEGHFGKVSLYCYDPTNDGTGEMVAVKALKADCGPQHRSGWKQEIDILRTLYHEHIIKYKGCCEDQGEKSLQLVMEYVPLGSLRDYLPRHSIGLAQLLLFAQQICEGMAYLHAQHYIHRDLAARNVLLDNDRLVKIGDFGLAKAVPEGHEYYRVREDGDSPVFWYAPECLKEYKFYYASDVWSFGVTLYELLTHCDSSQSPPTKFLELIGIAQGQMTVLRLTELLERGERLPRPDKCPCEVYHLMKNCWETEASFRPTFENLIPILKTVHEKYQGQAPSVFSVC

SMILES	tested on	test	test system	setting	scale	quantity	result
CC(C)NCC(SS(=O)(=O)O)c1ccccc1 (stereo not shown)	Schistosoma mansoni	perfusion day 35	infected Swiss Webster mice	100 mg/kg		body weight	26.7 g and 28.8 g and 25 g
COC1CN([C@H]2CC[C@H]([C@@]3(C)Oc4c(Cl)cc(C(=O)NCc5c(SC)cc(C)[nH]c5=O)c(C)c4O3)CC2)C1		RNA-seq, item: EXTL3	human, whole blood	dose not given, 24 h	baseline: pretreatment baseline	log2 fold change	1.32
Cc1ncsc1-c1ccc(C(C)NC(=O)C2CC(O)CN2C(=O)C(NC(=O)CCCCCCCCCCN2CCCC(Nc3ncc(Cl)c(Nc4ccccc4S(=O)(=O)C(C)C)n3)C2)C(C)(C)C)cc1 (stereo not shown)	22Rv1	RNA-seq, item: SLC30A4 mRNA		concentration not given	baseline: DMSO	log2 fold change	-1.23
Cc1cc(=O)c2c(O)c3c(O[C@@H]4O[C@H](CO)[C@@H](O)[C@H](O)[C@H]4O)cc(O)cc3cc2o1	HK-2 co-cultured with HepaRG	MTT		33.33 µM, 24 h	baseline: untreated control	cell viability	86.8 ± 15.9%
Cc1nn(-c2cccc(N)c2)c(=O)c2cnc(Nc3ccc(N4CCNCC4)cc3)nc12	Non-receptor tyrosine-protein kinase TYK2 (TYK2, Homo sapiens, UniProt P29597)	kinase activity, inhibitor, SelectScreen kinase profiling				IC50	> 10 µM
CCCC[C@@H](CSS(=O)(=O)O)NCCC	Schistosoma mansoni	perfusion day 57	infected Swiss Webster mice	100 mg/kg		body weight	30.8 g and 32 g and 33.1 g
CC(C)OCCOCc1ccc(OCC(O)CN(N=O)C(C)C)cc1 (stereo not shown)	Salmonella typhimurium	Ames test	TA1537	500 µg/plate, without metabolic activation	baseline: solvent control	revertant fold increase	0.8 fold
CCN(CC)CC#CCNc1ccnc2cc(Cl)ccc12	Salmonella typhimurium	mini-Ames test	TA98	125.0 µg/well, without S9		mean revertants	6 revertants/well
CCCC[C@H](NC(=O)CCCCCCCNC(=O)CN1CCN(CC(=O)O)CCN(CC(=O)O)CC1)C(=O)N[C@H]1CC(=O)NCCCC[C@@H](C(N)=O)NC(=O)[C@H](Cc2c[nH]c3ccccc23)NC(=O)[C@H](CCCNC(=N)N)NC(=O)[C@@H](Cc2ccccc2)NC(=O)[C@H](Cc2c[nH]cn2)NC1=O [technetium-99m labelled]			C57 mouse, tumor	intravenous, 0.037 MBq, 4 h		tissue uptake	5.89 ± 1.71 %ID/g
CN1CCCNC(=O)c2cccc(c2)C(=O)NCCCN(C)CCCNc2cccc3c2C(=O)c2cccc(c2C3=O)NCCC1	SAS	RNA-Seq, item: SDF2L1 mRNA		1 µM, 6 h	baseline: untreated cells	log2 fold change	-0.648
N#C[C@@H]1CCCN1C(=O)CNC(=O)c1ccnc2ccc(OCCCN3CCN(C(=O)CCc4ccc5c(c4)CN4CCN6CC(=O)[O][68Ga-]([O]C(=O)C4)([O]5)[O]c4ccc(CCC(=O)N5CCN(CCCOc7ccc8nccc(C(=O)NCC(=O)N9CCC[C@H]9C#N)c8c7)CC5)cc4C6)CC3)cc12	U-87 MG tumour model		host not given, pancreas	2 h, tumour-bearing		tracer uptake	2.66 %ID/g
O=C1C2CC3CC1CC(C(=O)N1CCN(c4ccc([N+](=O)[O-])c5ncccc45)CC1)(C3)C2	Escherichia coli	Ames test	WP2 uvrA pKM101	0.78 µg/well, with S9	baseline: vehicle	revertant fold increase	1
N=C(N)NCCC[C@@H]1NC(=O)[C@H](CCCNC(=N)N)NC(=O)[C@@H](CCCNC(=N)N)NC(=O)[C@@H](CCCNC(=N)N)NC(=O)[C@@H](C(c2ccccc2)c2ccccc2)NC(=O)[C@@H](Cc2c[nH]c3ccccc23)NC(=O)[C@@H](C(c2ccccc2)c2ccccc2)NC1=O	human liver cells	MTS		200 µg/mL, 24 h		viability	73%
CCCCNC(CCCC)CSS(=O)(=O)O (stereo not shown)	Schistosoma mansoni	perfusion day 62	infected Swiss Webster mice	100 mg/kg		body weight	28.7 g and 30 g and 33 g
CNC(=O)C1CCCN(C(=O)C2CC3CCC2N3C(=O)[C@@H]2C[C@@H](O)CN2C(=O)NCc2cccc(Cl)c2F)C1 (mixture of isomers)	Cytochrome P450 2C8 (CYP2C8, Homo sapiens, UniProt P10632)	preincubation without NADPH	human	0.206 µM	baseline: negative control	remaining activity	94.1% and 68.5% and 88.1%
N#C[C@@H]1CC(F)(F)CN1C(=O)CNC(=O)c1ccnc2c(NC(=O)[C@H](CCCCNC(=O)CCOCCOCCOCCOCCOCCOCCNC(=O)CN3CCN(CC(=O)[O-])CCN(CC(=O)[O-])CCN(CC(=O)[O-])CC3)NC(=O)CCCc3ccc(I)cc3)cccc12.[177Lu+3]	U-87 MG tumour model		host not given, bone	48 h, tumour-bearing		tracer uptake	0.95 %ID/g
Nc1ncc(-c2cc(-c3cnn(CC(F)(F)F)c3)ncc2F)nc1C(=O)NC1CNCC(F)C1 (stereo not shown)	PCTK3	KINOMEscan		1 µM	baseline: DMSO control	remaining binding	100%
O=C1NC2(CC2)COc2ncc(F)cc2[C@H]2COCCN2c2ccn3ncc1c3n2	CHL cells	chromosomal aberration test		75 µg/mL, 4 h, without S9 mix	baseline: solvent control	relative population doubling	81.5%
N#C[C@@H]1CC(F)(F)CN1C(=O)CNC(=O)c1ccnc2c(NC(=O)CCOCCOCCOCCOCCOCCOCCNC(=O)[C@H](CCCCNC(=O)CN3CCN(CC(=O)[O-])CCN(CC(=O)[O-])CCN(CC(=O)[O-])CC3)NC(=O)CCCc3ccc(I)cc3)cccc12.[177Lu+3]	U-87 MG tumour model		host not given, tumour	4 h, tumour-bearing		tracer uptake	6.68 %ID/g

Some of these lines once more:
SMILES	tested on	test	test system	setting	scale	quantity	result
O=C1C2CC3CC1CC(C(=O)N1CCN(c4ccc([N+](=O)[O-])c5ncccc45)CC1)(C3)C2	Escherichia coli	Ames test	WP2 uvrA pKM101	0.78 µg/well, with S9	baseline: vehicle	revertant fold increase	1
Cc1cc(=O)c2c(O)c3c(O[C@@H]4O[C@H](CO)[C@@H](O)[C@H](O)[C@H]4O)cc(O)cc3cc2o1	HK-2 co-cultured with HepaRG	MTT		33.33 µM, 24 h	baseline: untreated control	cell viability	86.8 ± 15.9%
